# Published values pooled from the literature.
# Compare with care: the assays were run in different laboratories. ± marks the error that the study gave.
Structure (SMILES),test system,setting,tissue uptake
CCCC[C@H](NC(=O)CNC(=O)CNC(=O)[C@H](CCCCNC(=O)[C@H](CC(=O)O)NC(=O)C(C)c1ccc(CC(C)C)cc1)NC(=O)CN1CCN(CC(=O)O)CCN(CC(=O)O)CCN(CC(=O)O)CC1)C(=O)N[C@H]1CC(=O)NCCCC[C@@H](C(N)=O)NC(=O)[C@H](Cc2c[nH]c3ccccc23)NC(=O)[C@H](CCCNC(=N)N)NC(=O)[C@@H](Cc2ccccc2)NC(=O)[C@H](Cc2c[nH]cn2)NC1=O (some centres unmarked) [lutetium-177 labelled],"C57 mouse, intestines","intravenous, 0.037 MBq, 4 h",3.26 ± 0.16 %ID
N#C[C@@H]1CC(F)(F)CN1C(=O)CNC(=O)c1ccnc2c(NC(=O)[C@H](CCCCNC(=O)CCOCCOCCOCCOCCOCCOCCNC(=O)CN3CCN(CC(=O)[O-])CCN(CC(=O)[O-])CCN(CC(=O)[O-])CC3)NC(=O)CCCc3ccc(I)cc3)cccc12.[177Lu+3],"mouse, U-87 MG tumour xenograft, spleen",48 h,0.6 ± 0.26 %ID/g
COc1ccc(Nc2nc(Nc3ccc(OCCOCC[18F])cc3)ncc2Br)cc1,"ICR mice, S180 tumour, intestine","intravenous, 370 kBq, 120 min",5.18 ± 0.02 %ID
COc1cccc(OC)c1-c1cc(C(=O)NC2(C(=O)O)C3CC4CC(C3)CC2C4)nn1-c1ccc(C(=O)N(C)CCOCCOCCN(C)C(=O)[C@H](CCCCNC(=O)[C@H](CC(C)C)NC(=O)C2OC2C(=O)O)NC(=O)CN2CCN(CC(=O)[O-])CCN(CC(=O)[O-])CCN(CC(=O)[O-])CC2)cc1C(C)C.[177Lu+3] (mixture of isomers),"mouse HT-29 xenograft, small intestine","4 h post injection, biodistribution",0.68 %ID/g
Cc1cc(C)n(CCN(CCN)CCCCCCNC(=O)[C@@H](N)Cc2c[nH]cn2)n1.[99Tc+].[C-]#[O+].[C-]#[O+].[C-]#[O+],"BALB/c nude mice A549 xenograft, kidney","intravenous, 15 min",15.5 ± 0.9 %ID/g
O=C(NCC1OC2CCC=CCCC2O1)c1ccc([18F])nc1 (centres unmarked),"healthy female BALB/c nude mice, pancreas","intravenous, 7.4 MBq per mouse, 60 min",0.9 ± 0.1 %ID/g
CCCC[C@H](NC(=O)COCCOCCNC(=O)CN1CCN(CC(=O)O)CCN(CC(=O)O)CC1)C(=O)N[C@H]1CC(=O)NCCCC[C@@H](C(N)=O)NC(=O)[C@H](Cc2c[nH]c3ccccc23)NC(=O)[C@H](CCCNC(=N)N)NC(=O)[C@@H](Cc2ccccc2)NC(=O)[C@H](Cc2c[nH]cn2)NC1=O [fluorine-18 labelled],"C57 mice B16-F10 melanoma, skin","intravenous, 0.37 MBq, 1 h",1.14 ± 0.23 %ID/g
CC(C)Cc1ccc(C(C)C(=O)N[C@@H](CCCCNC(=O)CCOCCOCCOCCOCCOCCOCCNC(=O)CN2CCN(CC(=O)[O-])CCN(CC(=O)[O-])CCN(CC(=O)[O-])CC2)C(=O)Nc2cccc3c(C(=O)NCC(=O)N4CC(F)(F)C[C@H]4C#N)ccnc23)cc1.[177Lu+3] (some centres unmarked),"mouse, U-87 MG tumour xenograft, spleen",48 h,0.37 ± 0.24 %ID/g
O=C(O)CCCOc1ccc([18F])cc1-c1cc(-c2ccccc2C(F)(F)F)n(-c2ccccc2)n1,"mouse, bone","intravenous, dose not given, 15 min",1.71 ± 0.45 %ID/g
N#C[C@@H]1CC(F)(F)CN1C(=O)CNC(=O)c1ccnc2c(NC(=O)[C@@H](N)CCCCNC(=O)CCOCCOCCOCCOCCOCCOCCNC(=O)CN3CCN(CC(=O)[O-])CCN(CC(=O)[O-])CCN(CC(=O)[O-])CC3)cccc12.[177Lu+3],"mouse, U-87 MG tumour xenograft, lung",1 h,0.89 ± 0.01 %ID/g
COc1cccc(OC)c1-c1cc(C(=O)NC2(C(=O)O)C3CC4CC(C3)CC2C4)nn1-c1ccc(C(=O)NCCNC(=O)[C@H](CCCCNC(=O)[C@H](CC(C)C)NC(=O)C2OC2C(=O)O)NC(=O)CN2CCN(CC(=O)[O-])CCN(CC(=O)[O-])CCN(CC(=O)[O-])CC2)cc1C(C)C.[177Lu+3] (mixture of isomers),"mouse, HT-29 xenograft, kidney",24 h post injection,6.2 %ID/g
[123I]c1ccc2nc(-c3ccc(-n4ccnn4)nc3)cn2c1,"male Wistar rat, large intestine","intravenous, 4 MBq, 6 h",11.4 ± 0.942 %ID/g
N#C[C@@H]1CC(F)(F)CN1C(=O)CNC(=O)c1ccnc2c(NC(=O)CCOCCOCCOCCOCCOCCOCCNC(=O)[C@H](CCCCNC(=O)CN3CCN(CC(=O)[O-])CCN(CC(=O)[O-])CCN(CC(=O)[O-])CC3)NC(=O)CCCc3ccc(I)cc3)cccc12.[177Lu+3],"mouse, U-87 MG tumour xenograft, salivary gland",24 h,0.95 ± 0.23 %ID/g
COc1cccc(OC)c1-c1cc(C(=O)NC2(C(=O)O)C3CC4CC(C3)CC2C4)nn1-c1ccc(C(=O)N(C)CCCN(C)C(=O)[C@H](CCCCNC(=O)[C@H](CC(C)C)NC(=O)C2OC2C(=O)O)NC(=O)CN2CCN(CC(=O)[O-])CCN(CC(=O)[O-])CCN(CC(=O)[O-])CC2)cc1C(C)C.[177Lu+3] (mixture of isomers),"mouse, HT-29 xenograft, liver",72 h post injection,0.48 %ID/g

# Repeated from above:
Structure (SMILES),test system,setting,tissue uptake
Cc1cc(C)n(CCN(CCN)CCCCCCNC(=O)[C@@H](N)Cc2c[nH]cn2)n1.[99Tc+].[C-]#[O+].[C-]#[O+].[C-]#[O+],"BALB/c nude mice A549 xenograft, kidney","intravenous, 15 min",15.5 ± 0.9 %ID/g
